Experimental data from different studies.
Every numbered part comes from another study and shows a few of its results, in no order.

Block 1
Target: Ras GTPase-activating protein-binding protein 1, full length (G3BP1, Homo sapiens, UniProt Q13283)
Chain of UniProt Q13283 (whole entry, looked up): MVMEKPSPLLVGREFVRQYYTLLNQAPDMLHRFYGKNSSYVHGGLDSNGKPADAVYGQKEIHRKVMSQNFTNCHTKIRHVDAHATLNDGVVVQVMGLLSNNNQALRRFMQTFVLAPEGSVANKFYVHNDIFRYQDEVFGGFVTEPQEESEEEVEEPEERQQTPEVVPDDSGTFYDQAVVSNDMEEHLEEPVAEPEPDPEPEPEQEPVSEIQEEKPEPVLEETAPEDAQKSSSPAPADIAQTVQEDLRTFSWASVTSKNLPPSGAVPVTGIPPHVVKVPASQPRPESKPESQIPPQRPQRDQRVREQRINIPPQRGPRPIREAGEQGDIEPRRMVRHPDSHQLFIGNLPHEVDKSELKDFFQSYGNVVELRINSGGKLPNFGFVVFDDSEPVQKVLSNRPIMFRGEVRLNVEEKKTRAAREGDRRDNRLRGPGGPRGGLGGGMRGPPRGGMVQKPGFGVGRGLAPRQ
Method: RNA Bind-n-Seq
Form: RNA
Sample: in vitro
Tested at: 200 nM
Setting: whole 134-nt RNA, ends assumed
With: 150 mM LiCl
Relative to: input library
Direction: higher = stronger binding
Quantity: log2 enrichment
Library: 7-deaza-guanosine replaces G
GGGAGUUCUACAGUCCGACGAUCCCUGUGCUACACAUCGUAUGUACCGAAUCGGGGAGGGGUUUUUUUGGGGAAAAAAAGGGGAAAGUAUUAUGUUACGCCGUUCGGAUCUGCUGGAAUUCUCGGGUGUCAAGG: 0.482
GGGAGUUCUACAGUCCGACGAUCCAAGUCCUGUGCUACACAUCGUAUGUACCGAAUCGGAAAAAGGUUUUUGGAAAGGAAAGUAUUAUGUUACGCCGUUCGGAUCUGCACUUCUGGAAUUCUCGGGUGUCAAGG: -1.36
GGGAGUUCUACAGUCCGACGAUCUAACUUUAGAGGAGGAUCUCAUGGAUAUGGCAGUGGACGUGGAUUUGGGGAUGGCUAUAAUGGGUAUGGAGGAGGACCUGGAGGUGGCAAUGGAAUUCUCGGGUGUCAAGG: -0.385
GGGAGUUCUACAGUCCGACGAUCUCCUGUGCUACACAUCGUAUGUACCGAAUCGGAAAAAAGGAAAAAAGGGAAAAAAGGGGAAAGUAUUAUGUUACGCCGUUCGGAUCUGCAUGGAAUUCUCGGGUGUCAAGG: -0.722
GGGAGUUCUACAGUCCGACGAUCUCCUCAAGUCCUGUGCUACACAUCGUAUGUACCGAAUCGGGCGGGCGGGCGGAAAGUAUUAUGUUACGCCGUUCGGAUCUGCACUUCCAGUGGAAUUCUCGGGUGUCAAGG: 0.801
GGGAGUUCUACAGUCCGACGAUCUCAAGUCCUGUGCUACACAUCGUAUGUACCGAAUCGGGGAGGGGAGGGGAGGGGAAAGUAUUAUGUUACGCCGUUCGGAUCUGCACUUCCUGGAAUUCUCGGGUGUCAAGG: 0.453
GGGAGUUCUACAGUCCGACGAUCCUGUGCUACACAUCGUAUGUACCGAAUCGGAAAAAAAGGGGAAAAAAAGGAAAAAAAGGGGAAAGUAUUAUGUUACGCCGUUCGGAUCUGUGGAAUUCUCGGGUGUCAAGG: -0.148
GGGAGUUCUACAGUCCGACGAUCAGUCCUGUGCUACACAUCGUAUGUACCGAAUCGGGAAAAAGGGAAAAAGGGAAAAAGGAAAGUAUUAUGUUACGCCGUUCGGAUCUGCACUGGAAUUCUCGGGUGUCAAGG: -0.349

Block 2
Target: Interferon regulatory factor 3, full length, phosphomimetic (IRF3, Homo sapiens, UniProt Q14653, residues 1-427, S386D/S396D/S398D/S402D/T404D/S405D)
Method: protein-binding microarray
Form: double-stranded DNA, one strand shown
Sample: in vitro
Tested at: 2540 nM top
Setting: 60-bp whole probe
With: salmon DNA 0.4 mg/ml
Relative to: random background probes
Direction: higher = stronger binding
Quantity: fitted relative affinity
All sequences stand within: GCCTAGCAC … GTCTTGATTCGCTTGACGCTGCTG
Construct (chain): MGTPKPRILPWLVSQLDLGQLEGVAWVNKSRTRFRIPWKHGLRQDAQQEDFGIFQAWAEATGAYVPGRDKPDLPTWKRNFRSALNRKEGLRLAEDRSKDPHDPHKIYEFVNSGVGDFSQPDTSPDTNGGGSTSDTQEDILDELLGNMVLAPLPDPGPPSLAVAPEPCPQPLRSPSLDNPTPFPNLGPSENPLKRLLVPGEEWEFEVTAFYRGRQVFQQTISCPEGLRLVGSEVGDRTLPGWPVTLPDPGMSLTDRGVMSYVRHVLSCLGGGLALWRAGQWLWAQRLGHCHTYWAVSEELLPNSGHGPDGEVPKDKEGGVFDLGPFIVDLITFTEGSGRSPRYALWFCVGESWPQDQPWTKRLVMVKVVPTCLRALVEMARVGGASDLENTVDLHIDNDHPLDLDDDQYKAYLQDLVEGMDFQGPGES
TTAGAACTGGGCTATCGATTAGTGCTA: -0.745 z-score
TATAGCTGATACATATAGCCGTGCTAG: 0.07 z-score
GACGGACTGCTTTTCCTGTCGTGCTAG: 0.507 z-score
GACGTTTTCGGGACTGGAGACGTGCTA: 2.02 z-score
TCATTTTCATTTTTTTTACTGTGCTAG: 3.52 z-score
GACAATATCGGGTTTCGAGACGTGCTA: 1.26 z-score
CTGATTTCCACTTTCTTAATGTGCTAG: 3.19 z-score
TCACCTCTAGACTCTAAAACTGTGCTA: 0.179 z-score
GACTGTCTCGGTTTCGGGACGTGCTAG: 3.77 z-score
GACGGACCGCTTTTCCTGACGTGCTAG: 0.25 z-score
TTAGGACTGTTACTGCTTTAGTGCTAG: -0.427 z-score
TACGATTTCAGTTTCGAGACGTGCTAG: 4.31 z-score
TTACATCTCAGACTGGATTAGTGCTAG: 0.507 z-score
TACGGTATCGACACTGGGGACGTGCTA: 0.464 z-score
GACGATCTCCTTCTCCTGACGTGCTAG: 2.53 z-score
TCAGGTCTCCTACTGCTTTAGTGCTAG: 1.46 z-score
TCAATTTTCCCTCCCTAACTGTGCTAG: 2.47 z-score

Block 3
Target: Histone acetyltransferase KAT6A, winged helix 2, GST fusion (KAT6A, Homo sapiens, UniProt Q92794, residues 85-181)
Method: protein binding microarray
Form: double-stranded DNA, one strand shown
Sample: in vitro
Tested at: not given
Setting: 8-mer, flanks averaged, mean of 2 arrays, mostly near background
Relative to: not given
Direction: higher = stronger binding
Quantity: E-score
Residues (chain): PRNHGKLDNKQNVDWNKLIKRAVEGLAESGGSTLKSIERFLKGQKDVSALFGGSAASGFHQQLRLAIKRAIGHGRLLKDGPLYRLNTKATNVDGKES
CAGACGGA: 0.0128
TCCCAAGA: 0.0412
AACCTTTG: 0.0266
GTACGGAA: -0.164
AAACAGAG: 0.0344
CTGTGTAC: -0.0173
GAGGAAAC: 0.00302
CCTAACTA: -0.0332
CCGTAGTA: -0.176
GGAGTAAC: 0.00188
AAAGAAGT: -0.0138
CGTACCTC: -0.103
AAAAGTGC: -0.0998
GCAGAATA: -0.0208
ACATAGAC: -0.248
GAACTGTC: -0.0868
ACTTTTTA: -0.0146
AGGACAGC: 0.0549

Block 4
Target: Prothrombin, mature alpha-thrombin (F2, Homo sapiens, UniProt P00734)
Method: aptamer microarray, sandwich
Form: DNA with 2'F-ANA
Sample: in vitro
Tested at: 200 nM
Setting: whole 15-mer aptamer, many near background
With: Cy3 exosite-II aptamer, 400 nM
Direction: higher = stronger binding
Quantity: mean fluorescence intensity
Sequence: GGTTGGTGTGGTTGG
2'F-ANA at 1 3 6 7 9 10 15: 81.4 a.u.
2'F-ANA at 5 7 8 10 12 13 15: 124 a.u.
2'F-ANA at 2 3 5 7 14 15: 52.3 a.u.
2'F-ANA at 2 3 9 10 11 12 13 14 15: 245 a.u.
2'F-ANA at 1 4 8 9 12 13 14: 74.8 a.u.
2'F-ANA at 4 7 9 10: 87.2 a.u.
2'F-ANA at 3 4 5 6 8 10 11 15: 52.7 a.u.
2'F-ANA at 3 5 6 8 10 14: 54.6 a.u.
2'F-ANA at 3 5 7 8 11 12 13 14: 71.8 a.u.
2'F-ANA at 4 5 6 8 9 15: 74.3 a.u.
2'F-ANA at 2 4 5 11 13 14: 64 a.u.
2'F-ANA at 6 7 8 9 13 14: 157 a.u.
2'F-ANA at 1 2 3 7 8 9 11 13 15: 183 a.u.
2'F-ANA at 2 3 6 8 9 11 14 15: 329 a.u.
2'F-ANA at 1 3 5 6 7 9 11 15: 52.5 a.u.
2'F-ANA at 1 2 3 6 8 12 13 14 15: 92.6 a.u.
2'F-ANA at 1 2 3 4 9 10 11 13 14: 48.9 a.u.
2'F-ANA at 3 4 6 7 8 9 11 14: 240 a.u.
2'F-ANA at 1 2 3 5 6 7 10 11 13 14: 53.1 a.u.
2'F-ANA at 2 3 6 7 14: 424 a.u.
2'F-ANA at 2 3 4 5 6 7 8 9 10 11 12 14: 101 a.u.
2'F-ANA at 2 3 4 5 6 12 13 14 15: 51.8 a.u.
2'F-ANA at 1 2 6 10 13 14: 47 a.u.
2'F-ANA at 4 5 7 10 14: 43 a.u.
2'F-ANA at 1 2 3 4 5 6 9 10 11 12 13 14 15: 52.4 a.u.

Excerpt of the above (block 4):
2'F-ANA at 2 3 4 5 6 12 13 14 15: 51.8 a.u.
2'F-ANA at 2 3 6 8 9 11 14 15: 329 a.u.
2'F-ANA at 1 2 3 7 8 9 11 13 15: 183 a.u.
2'F-ANA at 6 7 8 9 13 14: 157 a.u.
2'F-ANA at 1 3 5 6 7 9 11 15: 52.5 a.u.
2'F-ANA at 3 5 7 8 11 12 13 14: 71.8 a.u.
2'F-ANA at 1 3 6 7 9 10 15: 81.4 a.u.
2'F-ANA at 2 3 5 7 14 15: 52.3 a.u.
